Results from different studies.
Compare with care: the assays were run in different laboratories. “And” joins repeats or separate records; there may be more than shown. ± gives the spread as reported.

CC(C)C[C@H](NC(=O)[C@H](CCC(=O)O)NC(=O)[C@@H](N)Cc1ccccc1)C(=O)N[C@@H](CCC(=O)O)C(=O)N[C@@H](CCCNC(=N)N)C(=O)N[C@@H](CCCNC(=N)N)C(=O)N[C@@H](Cc1ccccc1)C(=O)N[C@@H](CCCCN)C(=O)N[C@@H](CCC(N)=O)C(=O)N[C@@H](CCC(N)=O)C(=O)O has a viability of 99.1% and 99.9% and 99.4% (HCT-116; CCK-8; 10 µM; relative to: vehicle).
CSCC[C@H](N)C(=O)N[C@@H](C)C(=O)N[C@@H](Cc1c[nH]c2ccccc12)C(=O)N[C@@H](Cc1c[nH]cn1)C(=O)N[C@@H](CC(=O)O)C(=O)N[C@@H](CC(=O)O)C(=O)N[C@@H](CCC(=O)O)C(=O)N[C@@H](CCC(=O)O)C(=O)N[C@@H](Cc1ccccc1)C(=O)N[C@@H](C)C(=O)N[C@@H](CCCNC(=N)N)C(=O)N[C@@H](CCCNC(=N)N)C(=O)N[C@@H](CCCNC(=N)N)C(=O)N[C@@H](CCCNC(=N)N)C(=O)NCCCCCC(=O)NCCCCC(NC(=O)CCCCCNC(=O)[C@H](CCCNC(=N)N)NC(=O)[C@H](CCCNC(=N)N)NC(=O)[C@H](CCCNC(=N)N)NC(=O)[C@H](CCCNC(=N)N)NC(=O)[C@H](C)NC(=O)[C@H](Cc1ccccc1)NC(=O)[C@H](CCC(=O)O)NC(=O)[C@H](CCC(=O)O)NC(=O)[C@H](CC(=O)O)NC(=O)[C@H](CC(=O)O)NC(=O)[C@H](Cc1c[nH]cn1)NC(=O)[C@H](Cc1c[nH]c2ccccc12)NC(=O)[C@H](C)NC(=O)[C@@H](N)CCSC)C(=O)NCCCCC(NC(=O)C(CCCCNC(=O)CCCCCNC(=O)[C@H](CCCNC(=N)N)NC(=O)[C@H](CCCNC(=N)N)NC(=O)[C@H](CCCNC(=N)N)NC(=O)[C@H](CCCNC(=N)N)NC(=O)[C@H](C)NC(=O)[C@H](Cc1ccccc1)NC(=O)[C@H](CCC(=O)O)NC(=O)[C@H](CCC(=O)O)NC(=O)[C@H](CC(=O)O)NC(=O)[C@H](CC(=O)O)NC(=O)[C@H](Cc1c[nH]cn1)NC(=O)[C@H](Cc1c[nH]c2ccccc12)NC(=O)[C@H](C)NC(=O)[C@@H](N)CCSC)NC(=O)CCCCCNC(=O)[C@H](CCCNC(=N)N)NC(=O)[C@H](CCCNC(=N)N)NC(=O)[C@H](CCCNC(=N)N)NC(=O)[C@H](CCCNC(=N)N)NC(=O)[C@H](C)NC(=O)[C@H](Cc1ccccc1)NC(=O)[C@H](CCC(=O)O)NC(=O)[C@H](CCC(=O)O)NC(=O)[C@H](CC(=O)O)NC(=O)[C@H](CC(=O)O)NC(=O)[C@H](Cc1c[nH]cn1)NC(=O)[C@H](Cc1c[nH]c2ccccc12)NC(=O)[C@H](C)NC(=O)[C@@H](N)CCSC)C(N)=O (some centres unmarked) gave an osteoclastogenesis of 49.3% (mouse bone marrow macrophages; concentration not given, mean, together with: RANKL without NaSal; relative to: RANKL alone).
Cc1ccc(C(C)C)cc1.Cc1ccc(C(C)C)cc1.Cc1ccc(C(C)C)cc1.Cc1ccc(C(C)C)cc1.O=S(=O)(O)C(F)(F)F.O=S(=O)(O)C(F)(F)F.O=S(=O)(O)C(F)(F)F.O=S(=O)(O)C(F)(F)F.c1ccc2c3c4ccccc4c(c2c1)-c1cn(nn1)-c1cc[n+](cc1)[Ru-]1[O]c2ccc4c5c(ccc(c25)=[O+]1)=[O+][Ru-]([O]4)[n+]1ccc(cc1)-n1cc(nn1)-c1c2ccccc2c(c2ccccc12)-c1cn(nn1)-c1cc[n+](cc1)[Ru-]1[O]c2ccc4c5c(ccc(c25)=[O+]1)=[O+][Ru-]([O]4)[n+]1ccc(cc1)-n1cc-3nn1 gave an IC50 of 4.4 µM (HepG2; cell growth or viability, MTT; 24 h).
With COc1ccccc1-c1ccncc1C(=O)Nc1nnc(OCc2ccc(Cl)cc2)s1 the colony survival was 62.9% and 57.7% and 41.4% (DLD-1 BRCA2-/-; 0.5 µM, single replicate; relative to: untreated).
Under “citrullinated histone H3 level”, N[C@H](C(=O)N1CCCC1)C1CCN(c2nccc3c(-c4ncc(Cl)cc4Cl)cccc23)CC1 is recorded as 174000 and 163000 (human neutrophils; Western blot densitometry, measured: CitH3 band 6 over GAPDH; 0.1 µM, unit not given, together with: ionomycin 5 µM; relative to: GAPDH loading control).
For CC1CCC2C(C)C(OC(=O)CCC(=O)N3CCC(Nc4ccc(S(=O)(=O)NC(=O)c5ccc(N6CCN(CC7=C(c8ccc(Cl)cc8)CC(C)(C)CC7)CC6)cc5Oc5cnc6[nH]ccc6c5)cc4[N+](=O)[O-])CC3)OC3OC4(C)CCC1C32OO4 (centres unmarked), “late apoptotic cells” read 12.9% (KCL-22; annexin V/PI flow cytometry, measured: annexin V+/PI+; 3.2 µM, 24 h).
For CC(C)C[C@H](NC(=O)[C@H](CC(=O)O)NC(=O)CNC(=O)[C@@H](N)CCCNC(=N)N)C(=O)N[C@@H](C)C(=O)N[C@H](C(=O)N[C@@H](CC(C)C)C(=O)N[C@@H](CCCNC(=N)N)C(=O)N[C@@H](CCC(N)=O)C(=O)N[C@@H](CC(C)C)C(=O)N[C@@H](C)C(=O)N[C@@H](CCC(N)=O)C(=O)N[C@@H](CCC(=O)O)C(=O)N[C@@H](CC(=O)O)C(=O)NCC(=O)N[C@H](C(=O)N[C@H](C(=O)NCC(=O)N[C@H](C(=O)N[C@@H](CCCNC(=N)N)C(=O)NCCOCCOCCOCCOCCOCCOCCOCCOCCOCCOCCOCCOCCC(=O)N[C@@H](CS)C(N)=O)C(C)C)C(C)C)C(C)C)[C@@H](C)O, the selectivity ratio was 1.3 ± 0.71 (LNCaP prostate carcinoma; cell binding, phage binding, measured: output/input phage; 10 min, 37 °C; relative to: control phage).
For CC1OC2OC3C4=C(OC3(C)C12O)C(=O)c1c(O)cccc1C4=O (centres unmarked), the growth percent was -36.7% (HL-60; sulforhodamine B; 10 µg/mL, 48 h; negative means cell kill).
Cc1cc(Oc2nc(N3CC[C@@H](c4ccncc4)C3)ncc2F)[nH]n1 has an IC50 of 31.6 µM (HL-60; cell proliferation; blood cancer).
With O=c1n(CCNCCOS(=O)(=O)c2ccccc2)c(=O)n(S(=O)(=O)c2ccccc2)c(=O)n1S(=O)(=O)c1ccccc1 the viability was 41.4% (A549; cell growth or viability, MTT; 50 µg/mL, 72 h).
O=C(C[Se]C(=O)c1cccs1)Nc1cccc(C(F)(F)F)c1 gave a GI50 of 3.2 µM (NCI60 colon subpanel; NCI60 five-dose screen).
The CD41-positive cells of O=C(O)c1ccc(-c2nc(-c3ccccc3Cl)c3sccn23)cc1 is reported as 63.7% (HEL; flow cytometry; 0.01 mM).
For CC(=O)NCSC[C@H](NC(=O)[C@@H]1CCCN1C(=O)[C@H](C)NC(=O)[C@@H](NC(=O)CNC(=O)[C@@H](NC(=O)[C@H](Cc1c[nH]c2ccccc12)NC(=O)[C@H](C)NC(=O)CNC(=O)[C@H](CO)NC(=O)[C@H](C)NC(=O)[C@@H]1CCCN1C(=O)[C@H](Cc1c[nH]c2ccccc12)NC(=O)[C@H](C)NC(=O)[C@H](C)NC(=O)[C@@H](N)Cc1ccc(O)cc1)[C@@H](C)O)[C@@H](C)O)C(=O)N[C@@H](CO)C(=O)N[C@@H](C)C(=O)NCC(=O)N[C@H](C(=O)NCCOCCOCCOCCOCCOCCOCCOCCOCCOCCOCCOCCOCCC(=O)N[C@@H](CS)C(N)=O)[C@@H](C)O, the selectivity ratio was 4.5 ± 3.2 (H1355 lung adenocarcinoma; cell binding, phage binding, measured: output/input phage; 10 min, 37 °C; relative to: control phage).
For COc1ccc(NC(=O)c2ccc3[nH]c(-c4ccc(N(C)C)cc4)nc3c2)cn1, the PI-positive cells was 2.58 count and 3.25 count and 3.42 count (HCT116; IncuCyte; concentration not given, 0 (unit not given)).
Under inhibition, CSCC[C@H](NC(=O)[C@H](CC(C)C)NC(=O)[C@H](CCC(N)=O)NC(=O)[C@H](C)NC(=O)[C@H](Cc1c[nH]c2ccccc12)NC(=O)[C@H](Cc1ccc(O)cc1)NC(=O)[C@H](CCC(=O)O)NC(=O)[C@H](CC(C)C)NC(=O)[C@H](Cc1ccccc1)NC(=O)[C@@H](NC(=O)[C@H](CC(C)C)NC(=O)[C@H](CCCCN)NC(=O)CCCCCNC(=O)[C@H](CCCCN)NC(=O)[C@H](CCC(N)=O)NC(=O)[C@H](CCSC)NC(=O)[C@H](CC(C)C)NC(=O)[C@]1(C)CCCC=CCCC[C@](C)(NC(=O)[C@H](CC(C)C)NC(=O)[C@H](Cc2ccccc2)NC(=O)[C@@H](NC(=O)[C@H](CC(C)C)NC(=O)[C@H](CCCCN)NC(C)=O)[C@@H](C)O)C(=O)N[C@@H](Cc2ccc(O)cc2)C(=O)N[C@@H](Cc2c[nH]c3ccccc23)C(=O)N[C@@H](C)C(=O)N1)[C@@H](C)O)C(=O)N[C@@H](CCC(N)=O)C(=O)N[C@@H](CCCCN)C(N)=O is recorded as “inhibited” (U-251; cell growth, CCK-8; 16 µM).
For O=C(C[Se]C(=O)c1ccccc1Nc1cccc(C(F)(F)F)c1)Nc1cccc(C(F)(F)F)c1, the CC50 was 11.1 µM (NCI60 breast subpanel; NCI60 five-dose screen).
O=c1cc(-c2ccc(O)cc2)oc2cc(O)cc(O)c12 has an EC50 of 6.8 µM (SH-SY5Y Aβ-GFP cells; ROS reduction, CellROX).
O=C(C[Se]C(=O)c1cc2ccccc2s1)Nc1cccc(C(F)(F)F)c1 gave a CC50 of 6.92 µM (NCI60 CNS subpanel; NCI60 five-dose screen).
CSCC[C@H](NC(=O)[C@@H](NC(=O)[C@H](CCC(N)=O)NC(=O)[C@H](CO)NC(=O)[C@@H](N)C(C)C)[C@@H](C)O)C(=O)N[C@@H](CCCNC(=N)N)C(=O)N[C@@H](CCC(N)=O)C(=O)N[C@H](C(=O)N[C@@H](C)C(=O)N[C@H](C(=O)N1CCC[C@H]1C(=O)N[C@@H](CC(C)C)C(=O)N[C@@H](CC(C)C)C(=O)N[C@@H](Cc1c[nH]c2ccccc12)C(=O)N[C@@H](Cc1ccccc1)C(=O)N[C@@H](Cc1c[nH]c2ccccc12)C(=O)N[C@H](C(=O)NCC(=O)N[C@@H](CO)C(=O)N[C@@H](CC(C)C)C(=O)NCCOCCOCCOCCOCCOCCOCCOCCOCCOCCOCCOCCOCCC(=O)N[C@@H](CS)C(N)=O)[C@@H](C)O)C(C)C)[C@@H](C)O has a selectivity ratio of 20 ± 5.3 (MiaPaCa pancreatic cancer; cell binding, phage binding, measured: output/input phage; 10 min, 37 °C; relative to: control phage).
Under “mean growth percent”, O=C(C[Se]C(=O)c1ccccc1)Nc1cccc(C(F)(F)F)c1 is recorded as -56.5% (NCI60 breast subpanel; cell growth; 10 µM, 48 h, one-dose).
CC(C)(C)C(=O)OCOP(=O)(OCOC(=O)C(C)(C)C)C1CCCN(O)C1=O (centres unmarked) has a TGI of 1.83 µM (NCI-H522).
With O=C(C[Se]C(=O)c1ccc2ccccc2c1)Nc1cccc(C(F)(F)F)c1 the CC50 was 10.5 µM (NCI60 breast subpanel; NCI60 five-dose screen).
Cc1c(Cl)c(=O)oc2cc(OCCCCCC[Se]C#N)ccc12 has a GI50 of 17 µM (MIA PaCa-2; cell growth or viability, SRB).

For quick reference, copied from above:
CSCC[C@H](N)C(=O)N[C@@H](C)C(=O)N[C@@H](Cc1c[nH]c2ccccc12)C(=O)N[C@@H](Cc1c[nH]cn1)C(=O)N[C@@H](CC(=O)O)C(=O)N[C@@H](CC(=O)O)C(=O)N[C@@H](CCC(=O)O)C(=O)N[C@@H](CCC(=O)O)C(=O)N[C@@H](Cc1ccccc1)C(=O)N[C@@H](C)C(=O)N[C@@H](CCCNC(=N)N)C(=O)N[C@@H](CCCNC(=N)N)C(=O)N[C@@H](CCCNC(=N)N)C(=O)N[C@@H](CCCNC(=N)N)C(=O)NCCCCCC(=O)NCCCCC(NC(=O)CCCCCNC(=O)[C@H](CCCNC(=N)N)NC(=O)[C@H](CCCNC(=N)N)NC(=O)[C@H](CCCNC(=N)N)NC(=O)[C@H](CCCNC(=N)N)NC(=O)[C@H](C)NC(=O)[C@H](Cc1ccccc1)NC(=O)[C@H](CCC(=O)O)NC(=O)[C@H](CCC(=O)O)NC(=O)[C@H](CC(=O)O)NC(=O)[C@H](CC(=O)O)NC(=O)[C@H](Cc1c[nH]cn1)NC(=O)[C@H](Cc1c[nH]c2ccccc12)NC(=O)[C@H](C)NC(=O)[C@@H](N)CCSC)C(=O)NCCCCC(NC(=O)C(CCCCNC(=O)CCCCCNC(=O)[C@H](CCCNC(=N)N)NC(=O)[C@H](CCCNC(=N)N)NC(=O)[C@H](CCCNC(=N)N)NC(=O)[C@H](CCCNC(=N)N)NC(=O)[C@H](C)NC(=O)[C@H](Cc1ccccc1)NC(=O)[C@H](CCC(=O)O)NC(=O)[C@H](CCC(=O)O)NC(=O)[C@H](CC(=O)O)NC(=O)[C@H](CC(=O)O)NC(=O)[C@H](Cc1c[nH]cn1)NC(=O)[C@H](Cc1c[nH]c2ccccc12)NC(=O)[C@H](C)NC(=O)[C@@H](N)CCSC)NC(=O)CCCCCNC(=O)[C@H](CCCNC(=N)N)NC(=O)[C@H](CCCNC(=N)N)NC(=O)[C@H](CCCNC(=N)N)NC(=O)[C@H](CCCNC(=N)N)NC(=O)[C@H](C)NC(=O)[C@H](Cc1ccccc1)NC(=O)[C@H](CCC(=O)O)NC(=O)[C@H](CCC(=O)O)NC(=O)[C@H](CC(=O)O)NC(=O)[C@H](CC(=O)O)NC(=O)[C@H](Cc1c[nH]cn1)NC(=O)[C@H](Cc1c[nH]c2ccccc12)NC(=O)[C@H](C)NC(=O)[C@@H](N)CCSC)C(N)=O (some centres unmarked) gave an osteoclastogenesis of 49.3% (mouse bone marrow macrophages; concentration not given, mean, together with: RANKL without NaSal; relative to: RANKL alone).
For CC1CCC2C(C)C(OC(=O)CCC(=O)N3CCC(Nc4ccc(S(=O)(=O)NC(=O)c5ccc(N6CCN(CC7=C(c8ccc(Cl)cc8)CC(C)(C)CC7)CC6)cc5Oc5cnc6[nH]ccc6c5)cc4[N+](=O)[O-])CC3)OC3OC4(C)CCC1C32OO4 (centres unmarked), “late apoptotic cells” read 12.9% (KCL-22; annexin V/PI flow cytometry, measured: annexin V+/PI+; 3.2 µM, 24 h).
